Results pooled from the literature.
Lines come from different studies, so protocols differ. “And” joins repeats or separate records; there may be more than shown. ± marks the error that the study gave.
UniProt Q00535, sequence (whole entry, looked up): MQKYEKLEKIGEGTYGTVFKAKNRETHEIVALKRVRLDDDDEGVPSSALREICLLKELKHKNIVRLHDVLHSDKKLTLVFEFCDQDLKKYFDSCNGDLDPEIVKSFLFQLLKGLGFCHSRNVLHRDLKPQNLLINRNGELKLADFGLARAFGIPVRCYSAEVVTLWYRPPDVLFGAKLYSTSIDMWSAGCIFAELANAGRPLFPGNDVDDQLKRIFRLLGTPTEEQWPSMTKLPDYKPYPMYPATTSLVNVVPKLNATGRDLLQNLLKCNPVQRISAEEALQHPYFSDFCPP

CC(C)=CCc1cc(C(=O)/C=C/c2ccc(O)cc2)c(O)cc1O — Km (phase I metabolism, substrate; rat liver microsomes): 17.2 ± 2.92 µM
COc1cc([C@@H](O)[C@H](O)CO)ccc1O — IC50 (DPPH radical scavenging): 32.39 ± 0.18 µg/mL
CC[C@H](C)[C@@H](C(=O)N[C@@H](CC(C)C)C(=O)N[C@@H](CO)C(=O)N[C@@H](CO)C(=O)N[C@H](C(=O)N[C@@H](CCC(=O)O)C(=O)N[C@H](C(=O)NCC(=O)N[C@@H](CO)C(=O)N[C@@H](CC(N)=O)C(=O)N[C@H](C(=O)N1C[C@H](O)C[C@H]1C(N)=O)[C@@H](C)O)C(C)C)[C@@H](C)O)N(C)C(=O)[C@H](C)NC(=O)CN(C)C(=O)[C@H](Cc1ccccc1)NC(=O)[C@H](CO)NC(=O)[C@H](CO)NC(=O)[C@H](CCCNC(=N)N)NC(=O)[C@H](CCC(N)=O)NC(=O)[C@H](CC(C)C)NC(=O)[C@H](Cc1ccccc1)NC(=O)[C@H](CCCC(=O)O)NC(=O)[C@H](C)NC(=O)[C@H](CC(C)C)NC(=O)[C@H](CCCNC(=N)N)NC(=O)[C@H](CCC(=O)O)NC(=O)[C@@H](NC(=O)[C@H](C)NC(=O)[C@@H]1CCCCNC(=O)C[C@H](NC(=O)[C@H](CCCNC(=N)N)NC(=O)CC[C@H](NC(=O)CCCCCCCCCCCCCCCCCCC(=O)O)C(=O)O)C(=O)NCC(=O)N[C@@H]([C@@H](C)O)C(=O)N[C@@H](C)C(=O)N[C@@H]([C@@H](C)O)C(=O)N1)[C@@H](C)O — body weight change (diet-induced obese rats; subcutaneous, 3 nmol/kg every other day, day 20; baseline: day 0): 8.7%
NNC(=O)Cc1ccccc1 — normalised absorbance (hydrazine ligation kinetics, absorbance; concentration not given, 50 s, with: 2-formylphenylboronic acid): 0.762
COc1ccccc1-c1ccncc1C(=O)Nc1nnc(OCc2ccc(Cl)cc2)s1 — colony count (Brca1 Δ11/Δ11 Polq-/- MEFs, mouse; 1.25 µM): 66 and 57 and 96 and 43 and 68 and 95
Cc1ccc(NC(=O)CCN2CCCCCC2)cc1C — third-quartile larval motion (locomotor activity in dark; Danio rerio larvae, 7 dpf, well of 10 larvae; 10 µM, minute 7, dark): 0.7 ± 0.4 pixels/frame
COc1ccc(NC(=O)c2ccc3[nH]c(-c4ccc(N(C)C)cc4)nc3c2)cn1 — tumour volume (Lewis lung carcinoma, mice, syngeneic graft, subcutaneous; intraperitoneal, 25 mg/kg daily, day 7): 563 mm3 and 542 mm3 and 367 mm3 and 506 mm3
Cc1cccc(C)c1CNc1cc(C(=O)N2CCC2)cn2c(C)c(C)nc12 — inhibition (histamine-stimulated acid secretion; dog, Heidenhain pouch; oral, 5 mg/kg, 1 h, 9 h after dosing): 100%
OC(COCC1COc2ccccc2O1)CN1CCN(c2ccccc2)CC1 (stereo not drawn) — third-quartile larval motion (locomotor activity in dark; Danio rerio larvae, 7 dpf, well of 10 larvae; 10 µM, minute 7, dark): 2 ± 0.8 pixels/frame
COc1cc([C@@H]2O[C@@H](c3cc(OC)c(O[C@@H]4O[C@H](CO)[C@@H](O)[C@H](O)[C@H]4O)c(OC)c3)[C@H](CO)[C@H]2CO)cc(OC)c1O — lipid accumulation (Oil Red O; 3T3-L1, mouse; 5 µM, day 8; baseline: vehicle): 43.4 ± 2.48%
Cc1ncsc1-c1ccc(C(C)NC(=O)C2CC(O)CN2C(=O)C(NC(=O)CCCCCCCCCCN2CCCC(Nc3ncc(Cl)c(Nc4ccccc4S(=O)(=O)C(C)C)n3)C2)C(C)(C)C)cc1 (stereo not drawn) — log2 fold change (22Rv1; RNA-seq, item: ZCCHC14 mRNA; concentration not given; baseline: DMSO): -1.29
CCN(CC)CC#CCNc1ccnc2cc(Cl)ccc12 — revertant count (Salmonella typhimurium; mini-Ames test; TA100; 500.0 µg/well, with: rat liver S9): 14 revertants/well
COc1cccc(OCC(O)CN2CCN(c3ccccc3OC)CC2)c1 (stereo not drawn) — third-quartile larval motion (locomotor activity in dark; Danio rerio larvae, 7 dpf, well of 10 larvae; 10 µM, minute 5, dark): 10 ± 2 pixels/frame
COc1cc2nc(N3CCN(C(=O)C4CCC5(CCC5)O4)CC3)nc(N)c2cc1OC (stereo not drawn) — time to maximum BP lowering (blood pressure; spontaneously hypertensive rat, male; oral, 3 mg/kg): 15 min
O=C(NC[C@@H]1O[C@H]2CC/C=C/CC[C@H]2O1)c1ccc(COCCOCCOCCF)cc1 — observed rate constant kobs (IEDDA cycloaddition, substrate, stopped-flow spectrophotometry; water/methanol 45:55; 0.5 mM, 298 K, with: methyltetrazine-NHS 0.05 mM): 0.49 ± 0.00133 s⁻¹
Cc1nn(-c2cccc(N)c2)c(=O)c2cnc(Nc3ccc(N4CCNCC4)cc3)nc12 — IC50 (Cyclin-dependent kinase 5, with p25 (CDK5, Homo sapiens, UniProt Q00535); enzyme activity, inhibitor): 2.19 µM
CC(C)OCCOCc1ccc(OCC(O)CN(N=O)C(C)C)cc1 (stereo not drawn) — revertant fold increase (Salmonella typhimurium; Ames test; TA1535; 5 µg/plate, without metabolic activation; baseline: solvent control): 0.6 fold
CCN(CC)CC(=O)Nc1cccc(-n2cc(-c3ccc4ccc(-c5cn(-c6cccc(NC(=O)CN(CC)CC)c6)nn5)cc4c3)nn2)c1 — fold regulation (RCC4; PCR angiogenesis array, item: BAI1; 5 x IC50, 2 h, normoxia; baseline: untreated): -1.09
Cc1cc(C)cc(NC(=O)CCN2CCCCCC2)c1 — third-quartile larval motion (locomotor activity in dark; Danio rerio larvae, 7 dpf, well of 10 larvae; 10 µM, minute 5, dark): 8.3 ± 2 pixels/frame
Nc1ncc(-c2cc(-c3cnn(CC(F)(F)F)c3)ncc2F)nc1C(=O)NC1CNCC(F)C1 (stereo not drawn) — remaining binding (PIP5K2C; KINOMEscan; 1 µM; baseline: DMSO control): 71%
CC(C)C[C@H](NC(=O)[C@H](Cc1ccccc1)NC(=O)[C@H](C)NC(=O)[C@@H](CS)NC(=O)CNC(=O)[C@H](N)CO)C(=O)N[C@@H](CO)C(=O)N[C@H](C(=O)N[C@@H](CCCCN)C(=O)N[C@@H](CCCCN)C(=O)N[C@@H](CCC(N)=O)C(=O)N[C@@H](Cc1ccccc1)C(=O)N[C@@H](CCC(=O)O)C(=O)N[C@@H](CCC(=O)O)C(=O)N[C@@H](CC(C)C)C(=O)N[C@H](C(=O)N[C@@H](CC(C)C)C(=O)NCC(=O)N[C@@H](CCC(=O)O)C(=O)N[C@@H](Cc1ccccc1)C(=O)N[C@@H](CC(C)C)C(=O)N[C@H](CCCCN)C(=O)N[C@H](CC(C)C)C(=O)N[C@H](CC(=O)O)C(=O)N[C@@H](CCCNC(=N)N)C(=O)N[C@H](CCCNC(=N)N)C(=O)N[C@@H](CCCNC(=N)N)C(=O)N[C@@H](CCCCN)C(=O)O)[C@@H](C)O)C(C)C — ABCG2 expression reduction (immunoblot, RT-qPCR; mouse A549 xenograft, tumour; dose not given): ~80%
O=Cc1ccc(CO)n1Cc1ccc(O)cc1 — radical scavenging (ABTS radical; 300 µg/mL): 83.8 ± 2.28%
CN(Cc1ccccc1)C(=O)CN1CCN(CC(=O)[O-])CCN(Cc2cccc(C(=O)[O-])n2)CC1.[44Sc+3] — tracer uptake (mouse, stomach; intravenous, 1 h): 0.5 %ID/g
Oc1cc2c(cc1O)C(c1cccc3[nH]ccc13)NCC2 (stereo not drawn) — IC50 (DPPH scavenging, absorbance; 30 min, dark): 20.8 µM
CN1CCC[C@]1(C)/C=C/S(=O)(=O)NC(=O)Nc1c2c(cc3c1CCC3)CCC2 — IL-18 inhibition (human, whole blood ex vivo; 50 mg twice daily, day 14, 24 h, multiple ascending dose, with: LPS and ATP): 107%
CN(C)C(=O)c1ccnc(N2Cc3cn(Cc4ccc(F)cc4F)nc3C2)n1 — Cohen's d effect size (immunohistochemistry, item: NeuN neuron density; mouse cuprizone diet, corpus callosum; dose not given, unit not given; baseline: cuprizone plus vehicle): -0.34
CCC(=O)N[C@@H](C)C(=O)OCC(=O)N[C@@H](C)C(=O)O — chain scission rate constant (water; pH 5, 37 °C): 0.0012 h⁻¹
C=CC(=O)Nc1cccc(Cn2ncc3cnc(Nc4cnn(CCOC)c4)nc32)c1 — percent of control (MST3 human; binding, KINOMEscan; 100 nM; lower = stronger binding): 100%
COc1ccc(C(=O)CCc2cc(C(CCc3ccc(O)cc3OC)c3ccc(O)cc3)c(O)cc2OC)cc1 (racemic) — amount (item: 12-HEPE; human whole blood; 3 µM, with: A23187): 280 ± 79 pg/mL blood
COC1CN([C@H]2CC[C@H]([C@@]3(C)Oc4c(Cl)cc(C(=O)NCc5c(SC)cc(C)[nH]c5=O)c(C)c4O3)CC2)C1 — log2 fold change (RNA-seq, item: RFX2 mouse homolog; mouse, HT-1376 xenograft, whole blood; dose not given; baseline: vehicle): 0.511
CNS(=O)(=O)Nc1nccc(Cc2c(C)c3ccc(Oc4ncccc4F)cc3oc2=O)c1F — IC50 (Loucy; cell viability, CellTiter-Glo; 7 days): > 1 µM
Oc1ccccc1C1Nc2ccccc2C2=[O+][Cu-2]3([Cl])[O]c4ccccc4C=[N+]3N21 (stereo not drawn) — IC50 (photosynthetic electron transport; Spinacia oleracea chloroplasts): 450 µM
CCOC(=O)NN — normalised absorbance (hydrazine ligation kinetics, absorbance; concentration not given, 25 s, with: 2-formylphenylboronic acid): 0.772
CN1CCCNC(=O)c2cccc(c2)C(=O)NCCCN(C)CCCNc2cccc3c2C(=O)c2cccc(c2C3=O)NCCC1 — log2 fold change (SAS; RNA-Seq, item: SSU72 mRNA; 1 µM, 6 h; baseline: untreated cells): 0.398
C=C(NC(=O)c1csc(-c2nc3c(cc2O)-c2nc(cs2)C(=O)NC(C(C)O)C(=O)NC(=C(C)OC)c2nc(cs2)C(=O)NC2c4nc(cs4)C(=O)NC(COC(=O)c4c5c6c(cccc6n4O)COC(=O)C(OC4CC(C)(O)C(N(C)C)C(C)O4)C2OC5)c2nc-3cs2)n1)C(N)=O (stereo not drawn) — bacterial load (Streptococcus pneumoniae; -4, immunocompromised mice, lung infection, lung; 16 mg/kg/day three times daily, 24 h post-dose): 5.54 log CFU/g
CC[C@H](C)[C@@H](C(=O)N[C@@H](CC(C)C)C(=O)N[C@@H](CO)C(=O)N[C@@H](CO)C(=O)N[C@H](C(=O)N[C@@H](CCC(=O)O)C(=O)N[C@H](C(=O)NCC(=O)N[C@@H](CO)C(=O)N[C@@H](CC(N)=O)C(=O)N[C@H](C(=O)N1C[C@H](O)C[C@H]1C(N)=O)[C@@H](C)O)C(C)C)[C@@H](C)O)N(C)C(=O)[C@H](C)NC(=O)CN(C)C(=O)[C@H](Cc1ccccc1)NC(=O)[C@H](CO)NC(=O)[C@H](CO)NC(=O)[C@H](CCCNC(=N)N)NC(=O)[C@H](CCC(N)=O)NC(=O)[C@H](CC(C)C)NC(=O)[C@H](Cc1ccccc1)NC(=O)[C@H](Cc1c[nH]cn1)NC(=O)[C@H](C)NC(=O)[C@H](CC(C)C)NC(=O)[C@H](CCCNC(=N)N)NC(=O)[C@H](CCC(=O)O)NC(=O)[C@@H](NC(=O)[C@H](C)NC(=O)[C@@H]1CSSC[C@H](NC(=O)[C@H](CCCNC(=N)N)NC(=O)CC[C@H](NC(=O)CCCCCCCCCCCCCCCCCCC(=O)O)C(=O)O)C(=O)N[C@@H](CCC(N)=O)C(=O)N[C@@H]([C@@H](C)O)C(=O)N[C@@H](C)C(=O)N[C@@H]([C@@H](C)O)C(=O)N1)[C@@H](C)O — body weight loss (male Sprague-Dawley rats; subcutaneous, 30 nmol/kg single dose, 96 h): 7 ± 0.4%

Repeated from above:
O=C(NC[C@@H]1O[C@H]2CC/C=C/CC[C@H]2O1)c1ccc(COCCOCCOCCF)cc1 — observed rate constant kobs (IEDDA cycloaddition, substrate, stopped-flow spectrophotometry; water/methanol 45:55; 0.5 mM, 298 K, with: methyltetrazine-NHS 0.05 mM): 0.49 ± 0.00133 s⁻¹
Cc1nn(-c2cccc(N)c2)c(=O)c2cnc(Nc3ccc(N4CCNCC4)cc3)nc12 — IC50 (Cyclin-dependent kinase 5, with p25 (CDK5, Homo sapiens, UniProt Q00535); enzyme activity, inhibitor): 2.19 µM
CC(C)OCCOCc1ccc(OCC(O)CN(N=O)C(C)C)cc1 (stereo not drawn) — revertant fold increase (Salmonella typhimurium; Ames test; TA1535; 5 µg/plate, without metabolic activation; baseline: solvent control): 0.6 fold
CCN(CC)CC(=O)Nc1cccc(-n2cc(-c3ccc4ccc(-c5cn(-c6cccc(NC(=O)CN(CC)CC)c6)nn5)cc4c3)nn2)c1 — fold regulation (RCC4; PCR angiogenesis array, item: BAI1; 5 x IC50, 2 h, normoxia; baseline: untreated): -1.09
Cc1cc(C)cc(NC(=O)CCN2CCCCCC2)c1 — third-quartile larval motion (locomotor activity in dark; Danio rerio larvae, 7 dpf, well of 10 larvae; 10 µM, minute 5, dark): 8.3 ± 2 pixels/frame
